Measured values of several laboratories.
Parts stem from different laboratories: compare values within a part only. Changes are numbered by the printed parent chain.

Block 1
Target: FOSL2, bZIP domain (human)
Technique: DHFR protein complementation
Medium: yeast
Notes: single substitutions, most at no-binding floor
Reference: wild-type JUN-FOS pair
Reading: higher = stronger binding
Parent: JUN, bZIP domain (human); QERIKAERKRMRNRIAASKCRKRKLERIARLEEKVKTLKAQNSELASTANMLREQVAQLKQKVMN; partner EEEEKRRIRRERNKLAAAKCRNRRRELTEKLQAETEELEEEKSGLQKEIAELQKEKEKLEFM
| Variant | binding fitness [natural log] |
| --- | --- |
| R53C | -0.762 |
| A46D | -0.501 |
| K39A | -0.354 |
| A49M | -0.0734 |
| R30L | 0.149 |
| Q58P | -1.34 |
| L38D | -1.06 |
| E44R | -0.0368 |
| E44Y | -0.227 |
| E33P | -1.28 |
| A46Y | -0.0868 |
| R30M | 0.105 |
| A49H | -0.415 |
| Q55P | -1.25 |
| A40G | -0.0595 |

Block 2
Target: CCNA2, cyclin fold, Cln2 fusion (human)
Technique: yeast growth competition, sequencing
Medium: yeast
Notes: strong parent motif
Reference: not given
Reading: higher = stronger binding
Parent: CDC25A docking peptide (human); PPHRRRLLFACSP
| Variant | normalised enrichment score |
| --- | --- |
| R5D | 0.285 |
| P13N | 2.62 |
| H3D | 1.84 |
| F9W | 1.7 |
| P2I | 2.25 |
| P2W | 2.04 |
| R5C | 1.29 |
| P2R | 3.45 |
| L7A | 1.81 |
| P1H | 2.1 |
| L7T | 1.69 |
| A10E | 3.82 |
| L8Y | 3.17 |
| P1L | 2.41 |
| P1Q | 2.37 |
| A10N | 3.25 |
| R4L | 1.78 |
| L7N | 1.46 |

Block 3
Target: ABI1, truncated, D143A, DHFR fusion (Arabidopsis thaliana)
Technique: DHFR PCA, deep sequencing
Medium: yeast
Notes: methotrexate growth selection, single substitutions
Added: (+)-ABA 200 µM
Reference: wild-type fitted maximum
Reading: higher = stronger binding
Parent: PYL1, truncated, DHFR fusion (Arabidopsis thaliana); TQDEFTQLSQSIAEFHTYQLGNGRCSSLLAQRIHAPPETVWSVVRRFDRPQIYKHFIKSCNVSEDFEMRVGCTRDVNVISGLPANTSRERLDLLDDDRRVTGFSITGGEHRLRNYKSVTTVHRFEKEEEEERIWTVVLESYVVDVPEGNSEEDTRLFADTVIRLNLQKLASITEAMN
| Variant | relative binding score [%] |
| --- | --- |
| K168D | 47.9 |
| T73Q | 99.2 |
| I79C | 107 |
| H34N | 102 |
| S63V | 101 |
| D48Q | 64.5 |
| E129Q | 98.2 |
| H55C | 103 |
| I57M | 70.2 |
| H110F | 3.16 |
| G71T | 44 |
| K54Q | -18.2 |
| H55P | 107 |
| H16F | -7.98 |
| I79G | 74.4 |

Block 4
Target: Histone acetyltransferase KAT6A, winged helix 1, GST fusion (KAT6A, Homo sapiens, UniProt Q92794, residues 1-85)
Technique: protein binding microarray
Form: double-stranded DNA, one strand shown
Medium: in vitro
Tested at: not given
Notes: 8-mer, flanks averaged, mean of 2 arrays, mostly near background
Reference: not given
Reading: higher = stronger binding
Construct (chain): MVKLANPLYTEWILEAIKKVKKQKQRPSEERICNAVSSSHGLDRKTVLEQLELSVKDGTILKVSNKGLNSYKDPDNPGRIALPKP
| Strand | E-score |
| --- | --- |
| CTATACTA | -0.0412 |
| GAGATAAA | -0.0752 |
| GAGGATAA | -0.264 |
| AGTTTAAC | -0.158 |
| CCTGTACG | 0.083 |
| AACTCTGG | -0.27 |
| CGGTAATC | 0.229 |
| CAAAACTG | -0.173 |
| AAGGCCTC | -0.192 |
| CAGACTGG | -0.223 |
| CGCATCCC | 0.252 |
| GAGTGGCC | 0.0338 |
| AGCCACGA | -0.134 |
| GGGAAGAA | -0.0201 |
| AAAGGGGT | -0.157 |
| CGCTCCAA | 0.0942 |
| ACTGCCCC | -0.0125 |

Block 5
Target: Prothrombin, mature alpha-thrombin (F2, Homo sapiens, UniProt P00734)
Technique: aptamer microarray, sandwich
Form: DNA with 2'F-ANA
Medium: in vitro
Tested at: 200 nM
Notes: whole 15-mer aptamer, many near background
Added: Cy3 exosite-II aptamer, 400 nM
Reading: higher = stronger binding
Strand: GGTTGGTGTGGTTGG
| Modification | mean fluorescence intensity [a.u.] |
| --- | --- |
| 2'F-ANA at 2 3 4 5 7 9 11 12 14 | 55.8 |
| 2'F-ANA at 1 3 4 6 8 9 10 12 13 14 | 53.5 |
| 2'F-ANA at 2 3 8 11 15 | 665 |
| 2'F-ANA at 1 3 5 7 9 11 13 14 | 46.9 |
| 2'F-ANA at 5 8 9 11 13 14 15 | 50.3 |
| 2'F-ANA at 1 2 3 5 7 8 9 10 | 47 |
| 2'F-ANA at 2 5 7 8 11 13 | 57.3 |
| 2'F-ANA at 1 6 7 8 11 12 13 14 | 70 |
| 2'F-ANA at 3 6 8 10 14 | 420 |
| 2'F-ANA at 1 2 4 6 12 13 | 190 |
| 2'F-ANA at 2 3 5 6 7 10 11 12 15 | 55.7 |
| 2'F-ANA at 1 4 6 11 13 14 15 | 68.8 |
| 2'F-ANA at 1 2 3 4 5 6 7 10 13 | 51.1 |
| 2'F-ANA at 2 3 5 6 8 13 14 | 168 |
| 2'F-ANA at 1 3 4 6 9 11 13 15 | 97.8 |
| 2'F-ANA at 1 3 6 8 11 14 | 84.8 |

Block 6
Target: Interferon regulatory factor 5, full length, phosphomimetic (IRF5, Homo sapiens, UniProt Q13568-2, residues 1-514, S451D/S453D/S456D/S462D)
Technique: protein-binding microarray
Form: double-stranded DNA, one strand shown
Medium: in vitro
Tested at: 940 nM top
Notes: 60-bp whole probe
Added: salmon DNA 0.4 mg/ml
Reference: random background probes
Reading: higher = stronger binding
Constant ends, left off below: GCCTAGCAC … GTCTTGATTCGCTTGACGCTGCTG
| Strand | fitted relative affinity |
| --- | --- |
| GACGGTTTCGGGTATCGGGAGGTGCTA | 9.44 z-score |
| GACGTTATCCTTCTCCTGACGTGCTAG | 0.504 z-score |
| TTAGATTACAGTATCGATTAGTGCTAG | 3.92 z-score |
| GACGCACTGGGTTTCGGGACGTGCTAG | 2.85 z-score |
| TTAGAACTGAGTATAGATTAGTGCTAG | -0.503 z-score |
| GACGGTTCCCTTTTTCTGACGTGCTAG | 1.2 z-score |
| GACGGACTGCTACTGCCGACGTGCTAG | -0.867 z-score |
| TTACATTTCAGTATCGATTAGTGCTAG | 6.65 z-score |
| GACGGTTTCGGGTTTGGGGACGTGCTA | 8.71 z-score |
| TTAGATATCGGGAGTGGATTAGTGCTA | 0.727 z-score |
| GACGAACTGGGGTTTGGAGACGTGCTA | 0.223 z-score |
| TCAACACTAGTTTTCATACTGTGCTAG | 0.434 z-score |
| CCCAGGACCCTGGAACTGGCGTGCTAG | -0.888 z-score |
| TAGATCGTCCCTTTGAGAGGGTGCTAG | -0.558 z-score |
| TCATTTTTCTACTTCTGACTGTGCTAG | 1.54 z-score |
| GACGAACTGAGTTTCGCGACGTGCTAG | 0.761 z-score |

Block 7
Target: Sal-like protein 4, full length isoform B (SALL4, Homo sapiens, UniProt Q9UJQ4-2, residues 1-616)
Technique: universal PBM
Form: double-stranded DNA, one strand shown
Medium: in vitro
Tested at: not given
Notes: 8-mer, flanks averaged, mean of replicates
Reading: higher = stronger binding
Target sequence (chain): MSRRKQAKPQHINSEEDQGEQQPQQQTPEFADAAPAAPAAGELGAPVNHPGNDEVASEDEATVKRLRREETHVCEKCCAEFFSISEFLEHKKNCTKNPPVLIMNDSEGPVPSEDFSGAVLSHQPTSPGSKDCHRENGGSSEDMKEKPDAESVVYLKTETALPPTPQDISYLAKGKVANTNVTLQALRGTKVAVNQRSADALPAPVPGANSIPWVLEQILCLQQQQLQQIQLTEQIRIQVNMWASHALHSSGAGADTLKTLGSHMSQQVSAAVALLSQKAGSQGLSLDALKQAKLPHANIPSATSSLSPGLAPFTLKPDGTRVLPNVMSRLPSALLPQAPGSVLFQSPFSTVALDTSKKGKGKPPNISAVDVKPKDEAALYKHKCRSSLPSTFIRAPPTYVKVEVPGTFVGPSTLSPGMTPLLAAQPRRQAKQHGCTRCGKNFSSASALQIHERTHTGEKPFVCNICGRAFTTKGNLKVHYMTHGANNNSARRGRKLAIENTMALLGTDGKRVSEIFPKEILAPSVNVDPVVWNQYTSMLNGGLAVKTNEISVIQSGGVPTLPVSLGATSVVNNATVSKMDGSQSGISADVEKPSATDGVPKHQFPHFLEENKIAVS
| Strand | E-score |
| --- | --- |
| AATGGCAG | 0.0705 |
| ACTGTGCA | -0.0216 |
| CGATAGGC | 0.11 |
| TCCGGAAA | -0.0567 |
| AAAAAGAG | -0.0172 |
| GACCTACA | 0.0483 |
| GGTTGTGA | -0.0233 |
| AGACTGCT | -0.0533 |
| GTATAGAA | 0.157 |
| ACCGGATA | -0.0909 |
| ATTAACTC | 0.22 |
| ATCGCCTG | -0.295 |
| GGTAACTA | 0.157 |
| GGTACCCA | -0.167 |
| CTTTGTAA | 0.142 |
| TAGGTCGA | 0.0128 |
| GAACGTGC | -0.136 |
| CAGACTGC | -0.178 |
| GCCGCCAC | -0.359 |
| AGTACTCG | -0.00488 |
| TAAGCTCA | -0.0684 |
| GTGAACGA | 0.0788 |
| GGCGGTGA | -0.221 |
| CTCCCATC | -0.00072 |
| ACCCGGGG | -0.396 |

Repeated from above (block 2):
| Variant | normalised enrichment score |
| --- | --- |
| F9W | 1.7 |
| P2I | 2.25 |
| P2W | 2.04 |
| R5C | 1.29 |
| P2R | 3.45 |
| L7A | 1.81 |
| P1H | 2.1 |
| L7T | 1.69 |
| A10E | 3.82 |
| L8Y | 3.17 |
| P1L | 2.41 |
| P1Q | 2.37 |
| A10N | 3.25 |
| R4L | 1.78 |
| L7N | 1.46 |
